Assay results of several laboratories.
Lines come from different studies, so protocols differ.
Voltage-dependent P/Q-type calcium channel subunit alpha-1A: Voltage-dependent P/Q-type calcium channel subunit alpha-1A (Homo sapiens, UniProt O00555)
UCHL1: Ubiquitin carboxyl-terminal hydrolase isozyme L1 (UCHL1, Homo sapiens, UniProt P09936)
T1: G-quadruplex DNA (Homo sapiens); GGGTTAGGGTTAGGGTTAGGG

The inhibition of CC[C@@H]1C(=O)OC[C@@H]1Cc1cncn1C.Cl is reported as 10% (Voltage-dependent P/Q-type calcium channel subunit alpha-1A; ion current, antagonist; 30 µM).
c1cc(-c2nc(N3CCNCC3)c3ccccc3n2)nc(-c2nc(N3CCNCC3)c3ccccc3n2)c1 gave a ΔTm of > 15 °C (T1, G-quadruplex DNA (Homo sapiens); FRET melting; 1 µM, pH 7.2, KCl 10 mM).
O=c1nc(SCc2ccc(C(F)(F)F)cc2)nc(SCc2csc3ccc(Cl)cc23)[nH]1: “mean relaxed DNA” 48.1% (DNA topoisomerase 2-alpha (TOP2A, Homo sapiens, UniProt P11388); DNA relaxation; 7.8 µM).
CN(C)CCNc1ccc(-c2nn(C)c(=O)c3ccccc23)cc1[N+](=O)[O-] gave an inhibition of 7.6% (Trypanosoma cruzi; reporter translation, Renilla luciferase mRNA translation; cell-free extract; 40 µM; baseline: DMSO).
For CC(Cl)C(=O)N[C@@H]1CN(Cc2ccccc2)C[C@H]1c1ccccc1 (stereo partly drawn), the labelling was 18.6% (UCHL1; covalent, intact protein LC-MS; 12.5 µM).
The ED50 of CN(C(=O)n1cnc(-c2ccc[n+]([O-])c2)c1)C1CCCCC1 is reported as 5 µg/kg (Fatty-acid amide hydrolase 1 (Faah, Rattus norvegicus, UniProt P97612); enzyme activity, inhibitor; rat, liver; oral, 1 h).
The inhibition of CC[C@@H]1[C@H](F)C(=O)N[C@@H]1COc1nccc2cc(C(N)=O)c(OC)cc12 is reported as -3.4% (Focal adhesion kinase 1 (PTK2, Homo sapiens, UniProt Q05397); ATP probe binding, KiNativ profiling, refers to: Lys1 probe site; THP-1 cell lysate; 0.04 mM).
COc1ccc(NC(=O)C(C#N)=Cc2c(Cl)nc3ccccn23)cc1 has a labelling of 15% (UCHL1; covalent, intact protein LC-MS; 12.5 µM).
For C=CC(=O)N1CCC(COCC(=O)N2CCN(c3nc(-c4cnc(N)nc4C(F)F)nc(N4CCOC[C@@H]4C)n3)CC2)CC1, the remaining binding was 100% (Mitogen-activated protein kinase kinase kinase 4 (MAP3K4, Homo sapiens, UniProt Q9Y6R4); KINOMEscan; 1 µM).
With CC12CC3CC(C)(C1)CC(N)(C3)C2 the inhibition was 26% (Voltage-dependent P/Q-type calcium channel subunit alpha-1A; ion current, antagonist; HEK293; 10 µM).
Cc1cc(-c2ccnc3[nH]cc(F)c23)cc(F)c1[C@@]1(O)[C@H](C)CN(C2CCS(=O)(=O)CC2)C[C@@H]1C gave an inhibition of 56.5% (Serine/threonine-protein kinase LATS1 (LATS1, Homo sapiens, UniProt O95835); ATP probe binding, KiNativ, refers to: Lys2 site; HEK293T cell lysate; 1 µM).
CN1CCN(c2cc(-c3ccncc3)c(-c3ccc4ccccc4c3)nn2)CC1 gave an activation of -2.4% (Prostaglandin E2 receptor EP1 subtype (PTGER1, Homo sapiens, UniProt P34995); agonist, FLIPR; 12.5 µM).
CC/C=C(\C)C=O has a conversion of 98% (Uncharacterized protein PH0856 (Pyrococcus horikoshii, UniProt O58586); substrate, biocatalytic transformation; pH 6.2, 30 °C, anaerobic, added: NADPH).
COc1cccc(N2C(=O)C=CC2=O)c1 has a labelling of 8.75% (UCHL1; covalent, intact protein LC-MS; 12.5 µM).
For C[C@@H](c1ccc(-n2cnc3c(N)ncnc32)cc1)N1CCc2nn(C)c(Cc3ccccc3)c2C1=O, the remaining binding was 71% (Hepatocyte growth factor receptor (MET, Homo sapiens, UniProt P08581); KINOMEscan; 0.1 µM; baseline: DMSO control).
Cc1cc(C(=O)CCl)c(F)cc1F has a labelling of 20.3% (UCHL1; covalent, intact protein LC-MS; 12.5 µM).
The decatenated DNA of Cc1nc(CSc2nc(SCc3ccc(C(C)C)cc3)nc(=O)[nH]2)cs1 is reported as 9.12% (DNA topoisomerase 2-beta (TOP2B, Homo sapiens, UniProt Q02880); decatenation; 31.25 µM, replicate 1).
With COc1ccc(C(=O)CCl)cc1Cl the labelling was 16.9% (UCHL1; covalent, intact protein LC-MS; 12.5 µM).
Cc1cc(Oc2ncccc2CN2CCN(CCc3ccccc3)CC2)ccc1-c1c(C)c(=O)[nH]c(=O)n1C has a selectivity ratio of 17 (Alpha-2C adrenergic receptor (ADRA2C, Homo sapiens, UniProt P18825); binding, radioligand binding; added: [3H]rauwolscine; baseline: Ki alpha2A over Ki alpha2C).
N#CC(=Cc1ccc(OC(F)F)cc1)C(=O)N1CCCC1 has a labelling of 10.3% (UCHL1; covalent, intact protein LC-MS; 12.5 µM).
The inhibition of CCN(CC)CCCCCCNc1cc(OC)cc2c(C)ccnc12 is reported as -4.5% (Trypanosoma cruzi; reporter translation, Renilla luciferase mRNA translation; cell-free extract; 40 µM; baseline: DMSO).
